Measurements pooled from the literature.
Numbered parts are unrelated; each lists some results of a single study. Positions count from the first letter of the parent shown.

Set 1
Target: ABI1, truncated, D143A, DHFR fusion (Arabidopsis thaliana)
Technique: DHFR PCA, deep sequencing
Sample: yeast
Notes: methotrexate growth selection, single substitutions
With: (+)-ABA 710 µM
Relative to: wild-type fitted maximum
Direction: higher = stronger binding
Starting sequence: PYL1, truncated, DHFR fusion (Arabidopsis thaliana); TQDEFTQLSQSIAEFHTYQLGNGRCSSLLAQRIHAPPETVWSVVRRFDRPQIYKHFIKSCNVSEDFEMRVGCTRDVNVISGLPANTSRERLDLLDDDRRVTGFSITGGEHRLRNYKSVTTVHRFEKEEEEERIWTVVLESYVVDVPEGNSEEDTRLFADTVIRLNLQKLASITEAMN; partner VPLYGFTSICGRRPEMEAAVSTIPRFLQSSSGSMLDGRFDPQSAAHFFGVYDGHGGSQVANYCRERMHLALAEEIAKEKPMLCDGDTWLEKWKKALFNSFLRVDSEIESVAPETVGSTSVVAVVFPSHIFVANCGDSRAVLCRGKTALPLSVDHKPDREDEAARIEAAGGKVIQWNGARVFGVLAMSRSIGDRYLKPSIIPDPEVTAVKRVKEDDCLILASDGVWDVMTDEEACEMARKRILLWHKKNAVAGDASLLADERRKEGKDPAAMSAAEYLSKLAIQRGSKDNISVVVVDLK
Substitution | relative binding score
E130T | 103%
S87A | 94.7%
R88V | 103%
V143Q | 81.7%
R123C | 99%
F56H | 65.3%
V100Y | 85.6%
I12G | 64%
G107F | 58.2%
Q31V | 75.4%
H16T | 18%
V78Y | 54.7%
E131Q | 110%
R74N | -8.73%
Q10Y | 94.2%
A170N | 79.6%
S80T | 95.9%
R69D | 102%
T17G | 91.9%
I105D | 2.16%

Set 2
Target: Histone acetyltransferase KAT6A, winged helix 2, GST fusion (KAT6A, Homo sapiens, UniProt Q92794, residues 85-181)
Technique: protein binding microarray
Form: double-stranded DNA, one strand shown
Sample: in vitro
Tested at: not given
Notes: 8-mer, flanks averaged, mean of 2 arrays, mostly near background
Relative to: not given
Direction: higher = stronger binding
Residues (chain): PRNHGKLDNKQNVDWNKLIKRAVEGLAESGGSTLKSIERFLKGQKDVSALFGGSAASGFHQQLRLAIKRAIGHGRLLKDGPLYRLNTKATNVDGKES
Sequence | E-score
ACGGCCCA | 0.063
CAGTATAA | 0.0679
AATACCAC | -0.176
GACGAGGC | 0.0307
ACAAATAT | -0.00451
CACCCAAA | 0.0434
CAGAGATC | 0.139
CTGTATAC | -0.0216
CCCACTTC | 0.0418
CCCTGAAA | 0.00975
TACACATA | -0.275
CTATCGAC | -0.135
GTACGCAC | -0.122
ATCCGAGA | 0.0888
AGTTTAAG | 0.0464
AATGCTGG | -0.00177

Set 3
Target: Centromere-binding protein 1, full length, N-terminal tag (CBF1, Saccharomyces cerevisiae, UniProt P17106, residues 1-351)
Sequence of UniProt P17106 (whole entry, looked up): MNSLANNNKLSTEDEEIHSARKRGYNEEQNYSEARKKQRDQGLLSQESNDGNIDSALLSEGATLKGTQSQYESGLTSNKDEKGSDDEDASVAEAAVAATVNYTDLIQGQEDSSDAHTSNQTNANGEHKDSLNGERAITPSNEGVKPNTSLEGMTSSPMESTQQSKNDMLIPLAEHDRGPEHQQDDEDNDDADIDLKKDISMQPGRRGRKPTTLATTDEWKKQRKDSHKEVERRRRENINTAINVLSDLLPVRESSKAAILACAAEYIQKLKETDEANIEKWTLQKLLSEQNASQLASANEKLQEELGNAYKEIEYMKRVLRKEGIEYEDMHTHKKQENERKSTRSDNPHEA
Technique: protein-binding microarray
Form: double-stranded DNA, one strand shown
Sample: in vitro
Tested at: 0.8 µM
Notes: whole 60-bp probe, no competitor
Direction: higher = stronger binding
All sequences stand within: … GTCTTGATTCGCTTGACGCTGCTG
Sequence | fluorescence intensity [a.u.]
CTACCTCTATGAGATTGCGTGCCTCGAATTCTTTTC | 569
CTACGCGTTATTCGTCATCAGGCAAGTAATTATTTC | 585
CTAAAGCCACCCTAGTTCATCAGGTTGAAGAAGTTC | 509
CTAAGGGTAATACATCAGGTAGGTTGAAAATTATTC | 490
CCTAACTACTATAGGCACGAGAAATAGCTTCGTACA | 552
GAAGTGGTGGGATATACCGTGGCAACGGATAGTTAG | 512
CTAAAATCCTTATCAGGTGTGAATAATGCTTAATTC | 786
CTATTTACTATCTTACACGTGTTTGTAACATAATTC | 6010
GAAGGAAGGGCTTTTGAGCAGGTGAATAGAAGGTAG | 614
CTACGCAACTTAAGCCACACCACGTAATTCTTGTTC | 536
CTATTGCCTAAACGTCATCACAGGAGAGGGTAATTC | 556
GAACTAGTATTTACAGGTGAGAAGTTTACTTATTAG | 551
CTACATCTCGTATTACATGTGAATGTGCCTAATTTC | 605
CTATGGGTAATGCACGTGTTGATAATTACATCGTTC | 8980
CTAAAGTAGTTGGATCAGCTGAAGTAGTTTGAATTC | 551
CTAGTTTTCAAACAACATGTGCCATGTAAGATATTC | 882
GAAAACCATCGTTTTCACGTTTTTTAATTTTTTTAG | 975
GAATAGTCATAAGGTGACACAGCGTGGGTGTACTAG | 545
GAAGCTATCTTAACTGACGTGAAGTTGACCCTATAG | 506
TGTACGAAGCTATATCTCGTGTTTATAGTAGTTAGG | 632
CTATAGTAACTACGTAAATCACCTGCTACCTCTTTC | 1270
CCTAACTACTATATGCACGTGACATAGCTTCGTACA | 18100
GAATTGGCTTGATCACATGACACGTCGACGATATAG | 10100
CCTAACTACTATATTCTCATGACATAGCTTCGTACA | 573
GAACTTGGTTCTGGTGGTGTCTTGCGTCTTCTCTAG | 504

Set 4
Cell line: yeast with cyclin E2-Cln2 chimera
Effect on: cell growth
Action: binder
Technique: competitive growth deep sequencing
Form: peptide
Tested at: concentration not given
Notes: peptide tiling library
Direction: direction not given
Sequence | growth enrichment score
VSRNLRSSLKSSLHTL | -0.108
NRLLKLFTRCLTPLVP | 0.169
RTEALEQGGLPKKLIF | 0.134
LAKRALKYTD | -1.39
GPVKLEFDVSDGAT | -0.0241
ISRLFPPRTPGWHQLQ | 0.985
ATNSSHTDAHEILVSD | 0.379
NESHLDKEHDAVEVAD | -0.0362
PPTFLSTGEIHAFLSS | 0.0701
SFLIEYEFLIPPSLKP | -0.152
YLYLLLTQSLWCRV | 0.653
EHCRVLFLDHVMYTIH | -0.498
KVRRNLFNQELLSP | 1.42
RRRRLLFWDKETQI | -0.244
NLEPNAEFDKRTEFIT | 0.103
ELGMEHCEKFEISETS | 0.597
SPREGHMMDALYAQVK | 1.86

Set 5
Target: RNA binding protein fox-1 homolog 2, RRM domain, GST-SBP tag (RBFOX2, Homo sapiens, UniProt O43251-10, residues 100-194)
Technique: RNA Bind-n-Seq
Form: RNA
Sample: in vitro
Tested at: 365 nM
Notes: natural RNA segment, single round, ends assumed
Relative to: no-protein control
Direction: higher = stronger binding
All sequences stand within: GGGAGUUCUACAGUCCGACGAUC … UGGAAUUCUCGGGUGCCAA
Residues (chain): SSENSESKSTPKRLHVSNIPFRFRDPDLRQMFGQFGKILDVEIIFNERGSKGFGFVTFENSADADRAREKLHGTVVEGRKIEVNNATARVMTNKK
Sequence | RBNS enrichment (R)
AAUCCCAACCUGUUAGUCCCAGUAGUUUUGUUUUAACAUGGUCUUUUUCAACUUUGUUUCCUGUUUAACUACAGAUGACUUCUGUUGUAGACUCACAAGUUUAACUGUUG | 0.308
CUGCCAGAAGUUCAUGGUCAGAUACUGUGACUAUCACUAUCUUGUUUCUGUGAUUGUCAUUAAAAAAAAAUUUACUGUUGUGAUAAGAAUUUUAUUUGUUUUGUUUAAAG | 0.888
AGUGCUUUUUGUGUGGCUGAAGCGAUGUGCUGACGAAAAAAGGAAAAUUCUAGGACAAUCGUUGGCUAAAAAUCACCUUAGGAUGAAAAAUUUGAGGCAAAUUUUUUUAA | 1.31
AUUUUCCUUAGACUACCUAGUGGAGCAGGGAAUACUCUGCAUCUCAGGUAAAAAAAUGAGUACACUGAACAAUAUGUAAUUCAUACGUAUUUUGCAACUUACCUGUGAGC | 0.295
UGUGCUAUUGUGUGCGUGGUUGCUGAGACAAAAACUGGGACAAAGCAACUUACAGAGGGUAUUUUAGCUCAGUUCAGGUGUGGGGUCCACAGUGCUGAGGAAAUCAUAGU | 0.78
CAUGUGGUGGCCCUACUGACUGGUAAUGGUUAGAGGCAUUUAUGGAUUUUUAGCUUUGAGGAAAAACCAUGACUUUUAACAAAUUUUUAUGGGUUAUAUGCCUAAACCCU | 0.392
GACAAGCUGUCUUUCCCAGUCAGCCAGGGAGCUCCCCGCCAGGCCACGCCCCAGCCACUUUGCUCCCUCUCACCUCUGGGAAGUGCAAAUACUCUUGGUUGACAUCCCCU | 0.3
AAGAUCCUAAAUGGCAGCCUUUCAGAUAGGCAUGUCUGACACCUGCUGAGGCCUCUACCAGUUCACUCUCUCCCUUGGAAGUGGAAUUCUACCCACCUAAACCCCCCAAA | 0.607
CCCUUUCAUAAAAACCAAACUGUAGCAAGAUGCAAAUGCAUGGCAAAUCCUGUCGGUCUCCAGUUGGUUAUCUGAAUAGUGUCACCAAUUCCACCAAGACAGUGCUGAGA | 1.18
CCCCUAGCUGAGGCUCCCCCAGAAAACCCCUGGUUUUUUUUUUUUCCAGGGAGCUCAGUUUGAUCAUUCUGGGAAUUCUUGUCCUGCCAGCCUGGUGCGGCUGGGAUCAC | 0.396
AGAUAUGACCAGACGCAUCCUAAGAUGUUGAUUCUUACUGUGUUGUAUAAAAUAAAGUGUAGUUUACAAAAAAAAGAAACGUAAAAAAAAAAAACUACAUGCAAAACUGU | 2.06
AGAUGCUCAUAGAAGAGGAAGAAUGGGACAUGGCCCCAUGCUUAUUUUUGUUUACAACGUAACAUGGCAUGAGAGAGGGCAGAGAAACUAAGUUGCUGGGGAAAGUUAGA | 1.78
